Assay results from different studies.
Each numbered part is a random draw from the data of one study; scales do not carry over between parts. Positions count from the first letter of the parent shown.

Sample 1
Target: UDP-N-acetylglucosamine--peptide N-acetylglucosaminyltransferase 110 kDa subunit (OGT, Homo sapiens, UniProt O15294)
UniProt O15294, sequence (whole entry, looked up): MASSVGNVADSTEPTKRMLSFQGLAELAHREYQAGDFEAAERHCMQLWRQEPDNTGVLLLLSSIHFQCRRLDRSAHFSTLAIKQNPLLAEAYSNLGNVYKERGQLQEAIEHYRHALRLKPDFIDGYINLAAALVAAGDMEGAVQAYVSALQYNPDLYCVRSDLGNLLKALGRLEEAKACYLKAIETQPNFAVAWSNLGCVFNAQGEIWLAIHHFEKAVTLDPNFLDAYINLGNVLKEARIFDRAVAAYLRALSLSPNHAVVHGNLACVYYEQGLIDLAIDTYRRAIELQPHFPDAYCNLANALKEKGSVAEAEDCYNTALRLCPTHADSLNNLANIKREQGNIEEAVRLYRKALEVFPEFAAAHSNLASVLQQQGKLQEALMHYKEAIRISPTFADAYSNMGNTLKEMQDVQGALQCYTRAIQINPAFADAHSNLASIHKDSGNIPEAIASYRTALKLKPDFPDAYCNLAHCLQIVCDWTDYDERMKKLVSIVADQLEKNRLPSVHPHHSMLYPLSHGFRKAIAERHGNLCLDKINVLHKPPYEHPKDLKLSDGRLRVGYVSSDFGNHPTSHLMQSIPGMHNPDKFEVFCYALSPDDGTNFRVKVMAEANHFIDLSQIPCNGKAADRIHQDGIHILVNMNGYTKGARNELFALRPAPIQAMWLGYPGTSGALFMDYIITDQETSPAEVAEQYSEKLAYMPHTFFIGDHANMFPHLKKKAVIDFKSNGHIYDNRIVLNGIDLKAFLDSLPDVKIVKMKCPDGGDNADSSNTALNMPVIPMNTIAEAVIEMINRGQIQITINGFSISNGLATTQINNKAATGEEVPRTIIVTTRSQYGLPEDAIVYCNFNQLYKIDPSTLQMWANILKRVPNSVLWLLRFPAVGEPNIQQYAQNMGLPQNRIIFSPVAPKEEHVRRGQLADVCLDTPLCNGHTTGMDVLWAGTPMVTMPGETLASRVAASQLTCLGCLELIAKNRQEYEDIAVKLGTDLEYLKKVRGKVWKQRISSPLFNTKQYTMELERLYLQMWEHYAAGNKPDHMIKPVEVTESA
Effect on: binding
Method: phage display NGS
Molecule type: peptide
Reference: input library
Endpoint: minimum log2 enrichment ratio
AHAIHPDLHQYHSHQ: 1.6
SVFVHMQHRHGPHY: 3.88
SSYMPMYQLTVKPGQ: 4.24
TFRTHHFHHDLSQF: 3.29
GQLMMTHHPQWRQV: 1.07
HKSHTPHNMDWNTVR: 1.65
TPYPPYYPIVYMRT: 2.15

Sample 2
Target: Histone acetyltransferase KAT6A, winged helix 2, GST fusion (KAT6A, Homo sapiens, UniProt Q92794, residues 85-181)
Method: protein binding microarray
Molecule type: double-stranded DNA, one strand shown
Sample: in vitro
Tested at: not given
Setting: 8-mer, flanks averaged, mean of 2 arrays, mostly near background
Reference: not given
Direction: higher = stronger binding
Endpoint: E-score
Construct (chain): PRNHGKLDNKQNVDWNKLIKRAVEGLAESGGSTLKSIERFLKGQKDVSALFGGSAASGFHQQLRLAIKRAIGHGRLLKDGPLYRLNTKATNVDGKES
AACATTCT: -0.115
CCTCCGCC: 0.179
ACCTCAAT: -0.106
CGTAAAAC: -0.0796
TCGAGTAA: 0.00937
ATGGCATG: 0.0325
ACCAGTGA: -0.0676
AGGACTTC: 0.00185

Sample 3
Target: CCNF, cyclin fold, Cln2 fusion (human)
Method: yeast growth competition, sequencing
Sample: yeast
Setting: strong parent motif
Reference: not given
Direction: higher = stronger binding
Endpoint: normalised enrichment score
Parent: viral docking peptide; TSVRRALFTGGSD; partner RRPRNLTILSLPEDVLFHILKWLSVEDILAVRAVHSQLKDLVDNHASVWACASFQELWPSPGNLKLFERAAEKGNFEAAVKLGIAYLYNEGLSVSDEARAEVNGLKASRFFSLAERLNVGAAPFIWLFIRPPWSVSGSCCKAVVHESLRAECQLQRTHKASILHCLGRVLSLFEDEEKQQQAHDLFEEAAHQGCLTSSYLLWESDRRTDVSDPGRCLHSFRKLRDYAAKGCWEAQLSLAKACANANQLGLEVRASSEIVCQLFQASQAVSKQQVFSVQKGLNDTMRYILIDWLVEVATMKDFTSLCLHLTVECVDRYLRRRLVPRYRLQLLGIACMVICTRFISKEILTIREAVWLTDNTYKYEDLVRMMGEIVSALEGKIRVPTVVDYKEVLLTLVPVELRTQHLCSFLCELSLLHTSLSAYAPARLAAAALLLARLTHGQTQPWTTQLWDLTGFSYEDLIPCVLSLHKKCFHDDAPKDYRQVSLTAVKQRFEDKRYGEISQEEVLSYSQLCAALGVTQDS
G10T: 7.94
V3K: 1.2
S12Q: 8.47
S12C: 8.4
G10K: 8.5
T1A: 9.03
S2W: 7.17
R4F: 4.3
A6E: 6.86
V3P: 5.12
T9Y: 8.83
G11H: 8.46
F8D: 1.18

Sample 4
Target: inorganic phosphate, free oxyanion
Method: microfluidic competitive inhibition
Sample: in vitro, cell-free expressed
Tested at: not given
Setting: derived from inhibition constants, unchanged parent 615000 nM
Direction: lower = stronger binding
Endpoint: phosphate dissociation constant
Parent: PafA, mature enzyme, eGFP fusion (Elizabethkingia meningoseptica, UniProt Q9KJX5); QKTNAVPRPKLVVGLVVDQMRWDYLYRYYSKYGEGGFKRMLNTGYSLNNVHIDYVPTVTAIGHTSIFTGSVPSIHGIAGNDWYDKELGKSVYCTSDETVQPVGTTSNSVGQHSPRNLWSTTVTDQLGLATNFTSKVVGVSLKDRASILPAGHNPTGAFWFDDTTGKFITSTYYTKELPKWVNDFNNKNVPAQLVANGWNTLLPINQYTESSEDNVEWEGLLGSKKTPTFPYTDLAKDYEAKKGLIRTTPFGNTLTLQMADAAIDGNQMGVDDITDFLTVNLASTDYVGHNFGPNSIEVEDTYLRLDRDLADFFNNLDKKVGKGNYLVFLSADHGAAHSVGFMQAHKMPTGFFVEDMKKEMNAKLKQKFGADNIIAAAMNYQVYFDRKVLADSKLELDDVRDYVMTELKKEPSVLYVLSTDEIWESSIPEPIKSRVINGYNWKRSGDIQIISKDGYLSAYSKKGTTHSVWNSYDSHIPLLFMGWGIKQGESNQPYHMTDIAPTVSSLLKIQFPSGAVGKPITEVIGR
S490V: 453 µM
K508G: 429 µM
T174V: 637 µM
S90G: 453 µM
E209V: 583 µM
V16G: 204 µM
Y32V: 665 µM
V388A: 672 µM
N290G: 598 µM
K462G: 477 µM
L507G: 525 µM

For quick reference, copied from above (sample 1):
AHAIHPDLHQYHSHQ: 1.6
SVFVHMQHRHGPHY: 3.88
SSYMPMYQLTVKPGQ: 4.24
TFRTHHFHHDLSQF: 3.29
GQLMMTHHPQWRQV: 1.07
